Published values collected from several papers.
Compare with care: the assays were run in different laboratories. Several values in a cell are separate wells, animals, samples, runs or records.
Target: Ephrin type-B receptor 4 (EPHB4, Homo sapiens, UniProt P54760)
Residues used in one study (P54760 16-987): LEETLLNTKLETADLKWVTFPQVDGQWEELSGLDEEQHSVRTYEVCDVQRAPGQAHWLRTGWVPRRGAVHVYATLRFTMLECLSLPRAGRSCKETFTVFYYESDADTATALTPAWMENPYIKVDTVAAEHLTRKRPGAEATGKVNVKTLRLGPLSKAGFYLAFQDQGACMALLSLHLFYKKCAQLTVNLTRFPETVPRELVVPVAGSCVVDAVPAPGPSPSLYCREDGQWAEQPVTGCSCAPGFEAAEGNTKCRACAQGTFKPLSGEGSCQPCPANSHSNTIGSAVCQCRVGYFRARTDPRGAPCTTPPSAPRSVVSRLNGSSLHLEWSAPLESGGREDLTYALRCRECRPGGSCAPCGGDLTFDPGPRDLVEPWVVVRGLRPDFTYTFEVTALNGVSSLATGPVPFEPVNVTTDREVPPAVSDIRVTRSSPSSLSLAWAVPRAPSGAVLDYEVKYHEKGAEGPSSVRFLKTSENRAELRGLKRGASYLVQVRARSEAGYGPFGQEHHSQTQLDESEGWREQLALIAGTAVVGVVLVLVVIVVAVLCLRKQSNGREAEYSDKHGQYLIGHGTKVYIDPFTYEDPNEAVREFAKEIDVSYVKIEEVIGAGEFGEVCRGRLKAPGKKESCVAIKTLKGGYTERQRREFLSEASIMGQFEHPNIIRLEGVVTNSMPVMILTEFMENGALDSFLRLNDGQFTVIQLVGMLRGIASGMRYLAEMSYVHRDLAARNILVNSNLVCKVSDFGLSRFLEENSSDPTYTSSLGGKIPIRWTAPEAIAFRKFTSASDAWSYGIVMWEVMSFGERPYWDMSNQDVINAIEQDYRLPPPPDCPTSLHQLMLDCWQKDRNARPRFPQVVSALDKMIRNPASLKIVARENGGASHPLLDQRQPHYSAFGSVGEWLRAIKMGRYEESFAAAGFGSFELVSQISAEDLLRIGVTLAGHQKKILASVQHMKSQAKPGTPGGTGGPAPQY

C=CC(=O)N1CCc2ccc(-n3c(=O)ccc4cnc5ccc(-c6cnn(C)c6)cc5c43)cc21
remaining binding (KINOMEscan; 1 µM; relative to: DMSO control): 100%

CC(C)=CC1OC(C)(C)C2C=C3C(=O)C(Cl)=CC(O)C3C3C(O)C4OC4C(=O)C132 (stereo not drawn)
remaining binding (cell-free assay, competition with immobilised ligand; 10 µM): 77%

C[C@H]1CN(C(=O)c2cn(-c3ccnc(N)n3)c3cc(C#CC4(O)CCCCC4)ccc23)CCN1
inhibition (enzyme activity, inhibitor, FRET; 1 µM): 3%

Cc1nc2c(F)cc(-c3nc(Nc4ccc(CNC(=O)CCCCCCC(=O)NO)cc4)ncc3F)cc2n1C(C)C
inhibition (enzyme activity, inhibitor; 1 µM): 61%

CNC1C[S+]2CC[S+]3CC[S+](C1)[Ru-4]321([N]=C=S)[n]2c3ccc(OC)cc3c3c4c(c5cc(F)c[n+]1c5c32)C(=O)NC4=O (stereo not drawn)
remaining binding (KinomeScan; 0.1 µM; relative to: untreated): 90%

Cc1ccc(-c2c(/C=C(\C#N)C(=O)NC(C)C)n(CCCO)c3ncnc(N)c23)cc1
remaining binding (cell-free assay, competition with immobilised ligand; 1 µM): 75%

COc1c(OCCCN2CCOCC2)ccc2c1N=C(NC(=O)c1cnc(N)nc1)N1CCN=C21
remaining activity (kinase activity, inhibitor; 1 µM; relative to: untreated control): 113%

COCC12C(=O)NC3C4(C(OC)CC1O)C1CC5(O)C(OC)C(O)C(OC(C)=O)(C1C5OC(=O)c1ccccc1)C3(O)C(OC)C24 (stereo not drawn)
remaining activity (kinase activity, inhibitor, ProQinase kinase profiling; 25 µM; relative to: control): 105% and 114%

CNC(=O)C1CCN(c2cc(C)c(F)cc2NC(=O)c2ccc(-c3cc(O)ccc3C)c(C)c2)CC1
remaining binding (binding, competition with immobilised ligand; 1 µM): 0.85%

Cc1cccc(O[C@H]2CCC[C@@H](C(C)CNCc3ccncc3)C2)c1 (relative stereo)
inhibition (cell-free assay; 10 µM): -3%

COc1cc(Nc2nccc(-c3cnn4nc(OC)ccc34)n2)cc(C(F)(F)F)c1
remaining binding (binding, competition with immobilised ligand; 1 µM): 92%

Nc1ncc(-c2cc(-c3cnn(CC(F)(F)F)c3)ncc2F)nc1C(=O)NC1CNCC(F)C1 (stereo not drawn)
remaining activity (enzyme activity; 1 µM; relative to: DMSO control): 85.4%

Some of these lines once more:
CC(C)=CC1OC(C)(C)C2C=C3C(=O)C(Cl)=CC(O)C3C3C(O)C4OC4C(=O)C132 (stereo not drawn)
remaining binding (cell-free assay, competition with immobilised ligand; 10 µM): 77%
